Experimental data collected from several papers.
Parts stem from different laboratories: compare values within a part only. Substitutions count along the parent as printed.

Block 1
Target: CEBPB, bZIP domain (human)
Technique: DHFR protein complementation
Sample: yeast
Setting: single substitutions, most at no-binding floor
Reference: wild-type JUN-FOS pair
Reading: higher = stronger binding
Quantity: binding fitness
Starting sequence: JUN, bZIP domain (human); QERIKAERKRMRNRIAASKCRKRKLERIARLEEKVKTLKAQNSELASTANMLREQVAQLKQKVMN; partner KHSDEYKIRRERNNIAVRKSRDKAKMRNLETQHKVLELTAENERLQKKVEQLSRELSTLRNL
V35H: -1.45 natural log
E33P: -1.44 natural log
T48L: -1.25 natural log
L31V: -1.4 natural log
A57W: -1.47 natural log
T48C: -1.09 natural log
L38F: -1.49 natural log
S47Y: -1.22 natural log
K36H: -1.33 natural log
E54D: -1.04 natural log
N42R: -1.48 natural log
S43D: -1.23 natural log
L31N: -1.33 natural log
K39Q: -1.29 natural log
L31E: -1.45 natural log
A57E: -0.935 natural log
A40H: -1.4 natural log
A46I: -1.37 natural log
A46S: -1.32 natural log
A57G: -1.38 natural log
A40S: -1.45 natural log
E54W: -1.4 natural log
V56G: -1.5 natural log

Block 2
Target: RNA binding protein fox-1 homolog 2, RRM domain, GST-SBP tag (RBFOX2, Homo sapiens, UniProt O43251-10, residues 100-194)
Technique: RNA Bind-n-Seq
Molecule type: RNA
Sample: in vitro
Concentration: 365 nM
Setting: natural RNA segment, single round, ends assumed
Reference: no-protein control
Reading: higher = stronger binding
Quantity: RBNS enrichment (R)
Target sequence (chain): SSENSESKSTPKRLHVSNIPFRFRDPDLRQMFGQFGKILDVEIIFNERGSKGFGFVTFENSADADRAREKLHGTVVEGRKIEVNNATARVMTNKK
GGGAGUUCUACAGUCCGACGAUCUGCCUUCUCUCAGCUCCCAGGCCAACAGUAGCCAAACCCCUAGAGACAGUGAUGCCUGCCCGCACCCUGGCCUGGUCCCUGGUCCUUCACUGGCGCCUUCUCGGAGCUGGUGGAAUUCUCGGGUGCCAA: 0.485
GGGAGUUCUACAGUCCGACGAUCUAUUGUUUUACUUAGAAUAUUAGGAUUUUUUUUCACUAAUUUUUCUGCCAGUGAAGGAAAAUGGUCAUCCUUAGUACACAGAAAAGUAUGUUUUCACUUUUCCUUGUUCGUGGAAUUCUCGGGUGCCAA: 0.306
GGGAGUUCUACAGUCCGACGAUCGAAAGGGGUUUAUGUAUAAAUAUAUUUUAUGCCUUUUUAUUACAAGUCUUGUACUCAAUGACUUUUGUCAUGACAUUUUGUUCUACUUAUACUGUAAAUUAUGCAUUAUAUGGAAUUCUCGGGUGCCAA: 1
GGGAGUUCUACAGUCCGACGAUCCUUUGGAAUGCAUGCCAGUAAUGUAUUUUACAGUACAUGUUUAUUAUGUUCAAUAUUUGUAUUUGUGUUCUCUUUUGUUAUUUUUAAUUAGGGUAUAUGAAUAUUUUGCAUGGAAUUCUCGGGUGCCAA: 3.84
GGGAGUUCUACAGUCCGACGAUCCUUAUUUUCCCGUGGCCAGGACGCAUUUCUCUGAGUGGAAACAGGUUCUUGCAUGUGGAUGUGUGUUUCCCCAGGCAGACGGCCCCUCUCUUCCCAGCACUUCCCUGCCUUGGAAUUCUCGGGUGCCAA: 8.47
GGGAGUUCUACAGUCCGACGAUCAUGCAUUGGCCAGAGAGCCCGGGCUGGCUGUGCACAGCAUUCAUGUAGCUGAUUUCUAGCUUUUUUUUUUUUUCUGCCCCACUCCUGAGCAAAUCUGUCUUGCCAAGGAAUGGAAUUCUCGGGUGCCAA: 1.5
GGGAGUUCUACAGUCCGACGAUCGGUGCAGAGUAAUUUCUUACUGUGAGGAAUUGCCCAAUGUAUGGAAAGAUGCAUAGUUGGCUCUCACAUGCUAAAUGCCAGUAGCGCCCUCCUUCGCUUGAAGUCAUGACUGGAAUUCUCGGGUGCCAA: 0.43
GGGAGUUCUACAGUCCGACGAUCAGCCCUAGAAAGCUGCCUCCGUCCAGAAAUGCCUCUCACACCAGGAGCUCGGCCCUCUCUUUGUAGCUGUGACUGUCACCCUCUCAGGCUUUGUCUCAUCCUUCAUUCUGUGGAAUUCUCGGGUGCCAA: 0.312
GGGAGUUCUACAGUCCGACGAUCCUGAGAGGAUGUAGACUGGGCUGGGGCGAGAACAUGUCACACUAGAUCCCAGUCCACGAUGAUGAGUCAGGGAGACUCGAUAACUGCUCCUUGGCCAUUCAUUUUCCUCCUGGAAUUCUCGGGUGCCAA: 0.411
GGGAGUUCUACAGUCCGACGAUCAUCAUAGGAAUAAAAUUAUGGGAUCUCAACAAAGGGUCGAGGGUUUGAGGCUUAAACAAGCCAACAUAUGAAUAUAUGUUUUGUCUCGCUAUACUGCACUUACGCUAUCCUGGAAUUCUCGGGUGCCAA: 0.272
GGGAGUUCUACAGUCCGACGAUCCCUCGGGGUCAGGGCCCGGCAUGGCCAAGCCCUGGCCCAUCUGUGUCUGUGUCACUCCCCUCCCUUCCAGACUGGGCCUGGCUGCUGGGAUCCCUCUCAUGCGGUGGGUCUGGAAUUCUCGGGUGCCAA: 0.273
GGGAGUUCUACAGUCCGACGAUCAGUGAACUUCAGCCAUAUUAAGGACGUGGUCUGUGGUUUAUCACCAGACUUGUUCACUCCAUUCAAUUAUGUCCUGAGCCUUGAAACUGUUUUAUUUAACCAUGGGGUAGUGGAAUUCUCGGGUGCCAA: 0.276

Block 3
Target: Ras GTPase-activating protein-binding protein 1, full length (G3BP1, Homo sapiens, UniProt Q13283)
UniProt Q13283, sequence (whole entry, looked up): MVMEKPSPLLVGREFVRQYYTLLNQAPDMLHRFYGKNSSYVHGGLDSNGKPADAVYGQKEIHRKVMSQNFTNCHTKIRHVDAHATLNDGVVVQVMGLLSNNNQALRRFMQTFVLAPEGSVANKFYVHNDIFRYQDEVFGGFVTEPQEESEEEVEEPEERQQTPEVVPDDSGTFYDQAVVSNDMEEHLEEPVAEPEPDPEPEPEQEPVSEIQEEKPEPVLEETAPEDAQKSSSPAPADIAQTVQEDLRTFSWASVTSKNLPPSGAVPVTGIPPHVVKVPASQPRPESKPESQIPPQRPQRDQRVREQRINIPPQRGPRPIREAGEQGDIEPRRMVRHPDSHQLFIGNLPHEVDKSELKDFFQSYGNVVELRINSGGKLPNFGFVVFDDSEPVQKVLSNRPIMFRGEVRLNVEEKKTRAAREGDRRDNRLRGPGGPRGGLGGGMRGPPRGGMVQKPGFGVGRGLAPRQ
Technique: RNA Bind-n-Seq
Molecule type: RNA
Sample: in vitro
Concentration: 200 nM
Setting: whole 134-nt RNA, ends assumed
Added: 150 mM KCl
Reference: input library
Reading: higher = stronger binding
Quantity: log2 enrichment
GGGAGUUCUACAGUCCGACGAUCCUCAAGUCCUGUGCUACACAUCGUAUGUACCGAAUCGGCCGGGGCCGGCCGGGAAAGUAUUAUGUUACGCCGUUCGGAUCUGCACUUCCAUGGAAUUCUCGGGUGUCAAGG: -0.434
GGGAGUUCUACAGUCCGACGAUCUGGCCCUGGUGGCAUGCGGGGAGGAAGAGGUGGCCUCAUGGAUCGUGGUGGUCCCGGUGGAAUGUUCAGAGGUGGCCGUGGUGGAGAAAGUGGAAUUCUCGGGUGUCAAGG: 0.342
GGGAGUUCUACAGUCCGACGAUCCCUCAAGUCCUGUGCUACACAUCGUAUGUACCGAAUCGGGUGGGGUGGGUGGGAAAGUAUUAUGUUACGCCGUUCGGAUCUGCACUUCCAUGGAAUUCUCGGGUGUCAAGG: 1.38
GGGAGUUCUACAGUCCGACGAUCCUGUGCUACACAUCGUAUGUACCGAAUCGGCCCCCCCGGGCCCCCCCGGGCCCCCCCGGGGAAAGUAUUAUGUUACGCCGUUCGGAUCUGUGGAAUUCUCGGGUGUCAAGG: -0.982
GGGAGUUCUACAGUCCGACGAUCUGGCCCUGCUGGCAUGCGGGGAGGAAGAGGUGGCCUCAUGGAUCGUGGUGGUCCCGGUGGAAUGUUCAGAGGUGGCCGUGGUGGAGACAGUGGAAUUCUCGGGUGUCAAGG: -0.075
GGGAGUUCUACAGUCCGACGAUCUUCCUUUCCGUUGUGUGUUUUAAAGGUGUGUGCCCUCUUCCUGAUUCUGGAGAAAAAUGCCGGUCCGGAAGCAAGGUGAGAGUUUAUUCCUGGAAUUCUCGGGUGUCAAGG: 0.138
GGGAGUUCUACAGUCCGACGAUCCCUGUGCUACACAUCGUAUGUACCGAAUCGGUUUUUUUGGUUUUUUUGGGUUUUUUUGGGAAAGUAUUAUGUUACGCCGUUCGGAUCUGCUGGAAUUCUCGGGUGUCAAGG: -1.05
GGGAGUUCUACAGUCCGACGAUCAGUCCUGUGCUACACAUCGUAUGUACCGAAUCAAAUUUAAAUUUUUUUAAACCCAAAAAAGUAUUAUGUUACGCCGUUCGGAUCUGCACUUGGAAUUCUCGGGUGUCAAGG: -0.458
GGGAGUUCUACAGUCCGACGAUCUAACUUUAGAGGAGGAUCUGAUGGAUAUGGCAGUGGACGUGGAUUUGGGGAUGGCUAUAAUGGGUAUGGAGGAGAACCUGGAGGUGGCAAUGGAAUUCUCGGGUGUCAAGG: 0.203
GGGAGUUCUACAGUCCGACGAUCUGGGAGGUGGAUUUUGUUUAUUUUUUUAGCUCAUUUCCAGGGGUGGGAAUUUUUUUUUAAUAUGUGUAAUGAAUAAAGUUGUUUUUGAAAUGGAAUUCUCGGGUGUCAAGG: 0.0986
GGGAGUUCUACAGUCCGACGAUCCCUCAAGUCCUGUGCUACACAUCGUAUGUACCGAAUCGGGCGGGCGGCGGGGAAAGUAUUAUGUUACGCCGUUCGGAUCUGCACUUCCAGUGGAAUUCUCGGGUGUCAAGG: 0.89
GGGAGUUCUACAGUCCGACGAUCUAACUUUAGAGGAGGAUCUGAUGGAUAUGGCAGUGGACGUGGAUUUGGGGAUGGCUAUAAUGGGUAUGGAGGAGGACCUGGAGGUGGCACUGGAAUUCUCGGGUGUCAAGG: 0.248
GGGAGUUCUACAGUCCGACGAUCUGGGAGGUGGAUUUUGUCUAUUUUUUUAGCUCAUUUCCAGGGGUGGGAAUUUUUUUUUAAUAUGUGUCAUGAAUAAAGUUGUUUUUGAAAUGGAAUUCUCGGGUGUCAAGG: 0.0686
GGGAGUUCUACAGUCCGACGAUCAGUCCUGUGCUACACAUCGUAUGUACCGAAUCGGGGAAAGGGGAAAGGGGAAAGGGGAAAGUAUUAUGUUACGCCGUUCGGAUCUGCACUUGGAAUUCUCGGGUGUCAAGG: 0.423

Block 4
Target: ABI1, truncated, D143A, DHFR fusion (Arabidopsis thaliana)
Technique: DHFR PCA, deep sequencing
Sample: yeast
Setting: methotrexate growth selection, single substitutions
Added: (+)-ABA 2500 µM
Reference: wild-type fitted maximum
Reading: higher = stronger binding
Quantity: relative binding score
Starting sequence: PYL1, truncated, DHFR fusion (Arabidopsis thaliana); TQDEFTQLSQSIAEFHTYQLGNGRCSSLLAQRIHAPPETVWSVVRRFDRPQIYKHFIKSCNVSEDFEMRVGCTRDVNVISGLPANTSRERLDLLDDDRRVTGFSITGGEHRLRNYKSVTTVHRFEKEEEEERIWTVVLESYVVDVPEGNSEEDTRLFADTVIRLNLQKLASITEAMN; partner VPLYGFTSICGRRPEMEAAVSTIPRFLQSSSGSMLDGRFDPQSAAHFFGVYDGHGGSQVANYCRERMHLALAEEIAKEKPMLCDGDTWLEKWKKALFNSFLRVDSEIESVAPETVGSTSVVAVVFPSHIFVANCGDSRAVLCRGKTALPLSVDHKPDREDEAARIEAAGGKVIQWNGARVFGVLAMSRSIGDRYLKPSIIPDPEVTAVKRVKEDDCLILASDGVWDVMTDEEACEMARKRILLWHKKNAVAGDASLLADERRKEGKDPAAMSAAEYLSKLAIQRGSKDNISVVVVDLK
V143W: 0.0302%
E125R: 102%
T86H: 100%
E64D: 97.5%
E67C: 95.4%
R90E: 98.9%
D65M: 91.3%
T135D: 6.48%
E67R: 94.5%
P83W: 32%
A13M: 95.4%
A158D: 14%
D153P: 19.3%
S9N: 107%
L164Q: 98.7%
V43E: 74.5%
E4A: 101%
E4I: 103%
R99Y: 106%
R32M: 90.4%
L8E: 88.2%
V137R: -2.8%
Y141S: -6.17%
R24L: 96.4%
N77L: 94.4%

Repeated from above (block 1):
K39Q: -1.29 natural log
V35H: -1.45 natural log
S47Y: -1.22 natural log
L31E: -1.45 natural log
